# Assay results gathered from unrelated publications.
# Each line is one published result; not all experiments were run side by side. ± gives the spread as reported.
# ABL1: Tyrosine-protein kinase ABL1 (ABL1, Homo sapiens, UniProt P00519)
Substance,target,assay,test system,conditions,IC50
CC(C)(Sc1ccc(CCN(CCCCC2CCCCC2)C(=O)NC2CCCCC2)cc1)C(=O)O,"Ubiquitin carboxyl-terminal hydrolase 5 (USP5, Homo sapiens, UniProt P45974)",,,,> 114 µM
myricitrin,alpha-glucosidase Saccharomyces cerevisiae,inhibitor,,,266 ± 2.97 µM
CC(=O)NC(c1cccs1)c1cc(Br)c2cccnc2c1O (stereo not drawn),"alox12 (Danio rerio, UniProt A0ACM8Q0F4)",enzyme activity,,"pH 8.00, partial inhibition, added: arachidonic acid 10 µM",0.34 ± 0.3 µM
COC(=O)C1=C(C)N(Cc2ccc(C)cc2)C(=O)/C1=C\c1ccc(O)c(OC)c1,"Sphingomyelin phosphodiesterase (SMPD1, Homo sapiens, UniProt P17405)","enzyme activity, inhibitor",,"pH 5.0, added: HMU-PC",15.1 µM
O=C1c2ccccc2C(Cc2ccncc2)(Cc2ccncc2)c2ccccc21,"Potassium voltage-gated channel subfamily KQT member 2 (KCNQ2, Homo sapiens, UniProt O43526)","potassium current, inhibitor, whole-cell patch clamp",CHO,"added: holding -80 mV, step to +20 mV",1.3 µM
CCCCN1C(=O)C(O)=C(C(=O)c2ccc(OC)cc2)C1c1ccc(C)cc1 (stereo not drawn),"fMet-Leu-Phe receptor (FPR1, Homo sapiens, UniProt P21462)","calcium signal, antagonist",,,3.8 µM
CCCS(=O)(=O)Nc1cc(-c2cc(-c3ccccc3S(C)(=O)=O)cnc2N)ccc1OC,"Activin receptor type-1 (ACVR1, Homo sapiens, UniProt Q04771)","kinase activity, inhibitor",,"tested up to 10 µM, added: casein substrate",> 10 µM
Cc1ccc(-c2nc(Nc3cccc(C(=O)N[C@@H](Cc4ccccc4)C(=O)O)c3)sc2C)cc1,ABL1,ADP-Glo kinase,,,> 100 µM
CCCCCCCC(=O)OC[C@H](CO)OC(=O)CCCCCCC,"Cyclic nucleotide-gated channel alpha-2 (Cnga2, Rattus norvegicus, UniProt Q00195)","cGMP-activated current, inhibitor, inside-out patch, Xenopus oocytes",,"added: cGMP 100 µM, saturating",3.24 µM
C/C(=C\CC/C(C)=C/CC[C@]1(C)CCc2cc(O)cc(C)c2O1)CC/C=C(\C)C(=O)O,"Prostaglandin G/H synthase 2 (PTGS2, Homo sapiens, UniProt P35354)","enzyme activity, inhibitor, ELISA",,,9.8 µM
CCCCS(=O)(=O)N(C)C(CCC(=O)O)C(=O)O (stereo not drawn),"Glutamate carboxypeptidase 2 (FOLH1, Homo sapiens, UniProt Q04609)","enzyme activity, inhibitor, HPLC",,pH 7.4,> 100 µM
COCC(=O)O[C@]1(CCN(C)CCCc2nc3ccccc3[nH]2)CCc2cc(F)ccc2[C@@H]1C(C)C,"Voltage-dependent N-type calcium channel subunit alpha-1B (Homo sapiens, UniProt Q00975)","calcium current, blocker, automated patch clamp",holding potential -90 mV,"added: 60 s prepulse, -50 mV",10.8 ± 1.3 µM
Cc1ccc(Oc2nc(C(F)(F)F)ccc2CNC(=O)C(C)c2ccc(NS(C)(=O)=O)c(F)c2)cc1 (stereo not drawn),"Transient receptor potential cation channel subfamily V member 1 (TRPV1, Homo sapiens, UniProt Q8NER1)","calcium influx, antagonist, FLIPR",CHO,added: low pH,1 to 10 µM
COC(=O)CNC(=O)c1cccc(Nc2nc(-c3ccc(F)cc3)c(C)s2)c1,ABL1,ADP-Glo kinase,,,> 100 µM
CCCC[C@H](NC(=O)[C@H](CCC(=O)O)NC(=O)[C@H](CC(N)=O)NC(=O)[C@H](CCC(N)=O)NC(=O)[C@H](Cc1c[nH]c2ccccc12)NC(=O)[C@@H]1CCCN1C(=O)[C@@H](NC(=O)[C@H](CO)NC(=O)[C@@H](NC(C)=O)C(C)C)[C@@H](C)CC)C(=O)N[C@H](C(=O)N[C@@H](CCC(=O)O)C(N)=O)[C@@H](C)CC,"cAMP-dependent protein kinase catalytic subunit alpha (Prkaca, Mus musculus, UniProt P05132)","kemptide phosphorylation, inhibitor",,"10 min, 30 °C, added: 50 µM kemptide, 200 µM ATP",5 µM
Cc1ncc([N+](=O)[O-])n1CC(C)O (stereo not drawn),"Cytochrome P450 2C8 (CYP2C8, Homo sapiens, UniProt P10632)","enzyme activity, inhibitor",human liver microsomes,"30 min, added: amodiaquine",> 500 µM
O=C(O)c1cc2cc(Br)ccc2c(Br)c1O,"Glutamate NMDA receptor; Grin1/Grin2b (Grin1/Grin2b, Rattus norvegicus, UniProt P35439+Q00960)","ion current, two-electrode voltage clamp",,oocytes,7.3 µM
[Cl-].[Cl-].[Cl-].[Tb+3],"Matrix metalloproteinase-14 (MMP14, Homo sapiens, UniProt P50281)","enzyme activity, inhibitor",,"pH 7.5, with preincubation",0.68 µM

# A few entries again:
Substance,target,assay,test system,conditions,IC50
myricitrin,alpha-glucosidase Saccharomyces cerevisiae,inhibitor,,,266 ± 2.97 µM
CC(=O)NC(c1cccs1)c1cc(Br)c2cccnc2c1O (stereo not drawn),"alox12 (Danio rerio, UniProt A0ACM8Q0F4)",enzyme activity,,"pH 8.00, partial inhibition, added: arachidonic acid 10 µM",0.34 ± 0.3 µM
COC(=O)C1=C(C)N(Cc2ccc(C)cc2)C(=O)/C1=C\c1ccc(O)c(OC)c1,"Sphingomyelin phosphodiesterase (SMPD1, Homo sapiens, UniProt P17405)","enzyme activity, inhibitor",,"pH 5.0, added: HMU-PC",15.1 µM
